Published values collected from several papers.
A part holds a random share of what one study measured. Substitutions count along the parent as printed.
Sequence of UniProt P28222 (whole entry, looked up): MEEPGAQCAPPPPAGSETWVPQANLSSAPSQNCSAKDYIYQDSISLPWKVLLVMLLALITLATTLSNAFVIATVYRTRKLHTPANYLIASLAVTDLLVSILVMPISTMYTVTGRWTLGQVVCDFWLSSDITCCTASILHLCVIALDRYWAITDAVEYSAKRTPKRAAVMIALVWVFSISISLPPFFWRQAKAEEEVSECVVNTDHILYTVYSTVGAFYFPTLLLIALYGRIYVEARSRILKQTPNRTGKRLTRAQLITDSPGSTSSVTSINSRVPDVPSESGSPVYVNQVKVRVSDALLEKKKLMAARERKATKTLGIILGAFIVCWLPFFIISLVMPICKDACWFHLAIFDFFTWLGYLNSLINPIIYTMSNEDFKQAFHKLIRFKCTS

Block 1 — method: DNA-protein interaction ELISA; form: double-stranded DNA, one strand shown; medium: in vitro, bacterial lysate; tested at: not given; setting: whole dsDNA probe, crude lysate protein; baseline: highest signal in screen; direction: higher = stronger binding
Target: Probable WRKY transcription factor 50, DNA-binding domain (WRKY50, Arabidopsis thaliana, UniProt Q8VWQ5, residues 99-173)
Residues (chain): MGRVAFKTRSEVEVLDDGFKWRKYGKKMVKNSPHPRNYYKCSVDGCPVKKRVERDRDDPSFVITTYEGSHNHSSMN
Strand	relative absorbance
AAAAAAGCTTCGCGCCAGCGGGAAAA	18.9 % of maximum
AAAAAAGTTCGTGCTTAACCCAGTTTAAAA	25.5 % of maximum
AAAAAATAGCGACTTCGACTCTCAGTAAAA	26.2 % of maximum
AAAAAACCGAGTGTTGCCAGTTGCAGAAAA	14.4 % of maximum
AAAAAATTTGTTCGGGCTCATAACTGAAAA	14 % of maximum
AAAAAATTCGTATCTGTACCCTATGCAAAA	36.2 % of maximum
AAAAAAGGGTCGCTGTGAGCTCATGAAAAA	10.5 % of maximum
AAAAAACGTATTGATGTCTATTTCAAAAAA	11.3 % of maximum

Block 2 — method: RNA Bind-n-Seq; form: RNA; medium: in vitro; tested at: not given; setting: RNA with constant flanks, ends assumed; baseline: input RNA pool; direction: higher = stronger binding
Target: RING finger protein unkempt homolog, zinc fingers 1-6, GST-SBP tag (UNK, Homo sapiens, UniProt Q9C0B0, residues 30-357)
All sequences stand within: GGGAGUUCUACAGUCCGACGAUC … CAACAGAGGAUUGAGCAUCA
Residues (chain): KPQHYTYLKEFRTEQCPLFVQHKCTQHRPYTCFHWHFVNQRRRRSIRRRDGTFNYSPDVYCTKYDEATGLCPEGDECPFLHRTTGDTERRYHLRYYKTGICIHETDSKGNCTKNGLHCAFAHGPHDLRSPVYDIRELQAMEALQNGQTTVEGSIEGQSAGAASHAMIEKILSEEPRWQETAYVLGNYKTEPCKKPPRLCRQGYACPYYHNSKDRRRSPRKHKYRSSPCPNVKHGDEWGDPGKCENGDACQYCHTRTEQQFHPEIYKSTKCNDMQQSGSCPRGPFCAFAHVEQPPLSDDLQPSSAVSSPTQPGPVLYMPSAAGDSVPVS
Strand	bound/input enrichment
AAAGCAAUUGAGCAGGCCGAUCUCCUGCAGGAGGAUGCAAAAGAAGCUGAAACCCCACGCCGUGUUCUUGAAGAAAUUGGACUGACAUAACUGUCCUCCCUUGCUGAUGACUUCUUGUGG	0.148 ratio
GCAGUGGAAUUUUUCAUCAGAGAUAAAUAUGAAAAGAAGAAAUACUACGAUAAAAAUGCCACCGCUAUUACAAAUAAAGAAAAGGAAAAAAAAAAGGAAGAGAAAAAGAGAGAAAAGGAG	0.778 ratio
AGGCGGAGAGAACUGGCACUCUUCUCGGAUGACCGUUCACGGACAGUACAAUACCACAUAUACCGUGUACACACACAUACAAAUGUGUCGAUGCCCAUUCACAAACAGUACAGUACACGC	0.101 ratio
GUUGCCAGACCGGCCCAUAAAAAGAAAGCUCGAAUGGCGCGGACGCGCUCCGAUUUCUUGACCCGAGGUACUUUUGCCGAAGGGGAGGGGGAUACAGAGGAAGAUGAUUACGAUGACAUU	0.15 ratio
UUGAAGGUACUGGGAACAGCUUUUGAUCCUUUCUUAGGAGGAAAAAACUUCGAUGAAAAGUCCGUGGAACAUUUUUGUGCAGAAUUUAAAACUAAGUACAAGUUGGAUGCAAAAUCCAAA	0.0699 ratio
GGCUCCCCUUCCAAUGAGCUGGUGUCUGGAGGAUCUGACAAUCGGGUGAUUCAUUGGGAACCCGAGAAUAAUCAGGUUUUAAAAUCAGUCCGUCUCCAAGGCCAUGAAGGACCUGUUUGU	0.197 ratio
UGUGGUGGUAAUGUAAUAUUCAGAGUAUACUUUAAUGUUAGUGAGAAAUUCAGUUCUGCACCGCAGGCUUUUGCUAACUUACCUCUUGAAAGUUUUGUGUCUCUGGGCAGUGGUGGCGAA	1.48 ratio
CUGCCUACCUCAGAGCAUAAAUGCAUACAUUCUAGAGAAGAUGAAGACUUAAUUGAAAAUUCCGCCCAAGAUGAAACAUCUAGGCUGGACCUUGGAUUUGAGGAGUGGGAUGUAGCUGGC	0.217 ratio

Block 3 — target: CEP164, C-terminal peptide (human); method: DHFR complementation, deep sequencing; medium: yeast; baseline: wild type; direction: higher = weaker binding
Setting: single substitutions, model-inferred values
Parent: PDZK1, PDZ domain 2 (human); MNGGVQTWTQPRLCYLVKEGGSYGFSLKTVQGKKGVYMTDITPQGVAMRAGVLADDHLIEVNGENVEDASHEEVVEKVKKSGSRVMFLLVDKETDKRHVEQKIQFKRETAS; partner HNRVKVYRF
Change	binding free energy change [kcal/mol]
T7H	0.0184
V78T	1.14
Q104I	-0.138
V46Q	0.627
D55S	0.723
V17R	-0.148
M86G	-0.0928
W8V	-0.194

Single results of other studies
SMILES	target	assay	conditions	measurement	value
NC(=O)c1ccc2nc(-c3ccc(C4(N)CCC4)cc3)c(-c3ccccc3)n2n1	5-hydroxytryptamine receptor 1B (HTR1B, Homo sapiens, UniProt P28222)	ligand displacement	10 µM	inhibition	10.2%
